Assay results gathered from unrelated publications.
Compare with care: the assays were run in different laboratories.

The MIC of `CC(C)[C@H](NC(=O)[C@H](CCCNC(=N)N)NC(=O)[C@H](Cc1c[nH]c2ccccc12)NC(=O)[C@H](CCCNC(=N)N)NC(=O)[C@H](Cc1c[nH]c2ccccc12)NC(=O)[C@H](Cc1c[nH]c2ccccc12)NC(=O)[C@H](Cc1c[nH]c2ccccc12)NC(=O)[C@H](CCCNC(=N)N)NC(=O)[C@H](Cc1c[nH]c2ccccc12)NC(=O)[C@@H](N)CCCNC(=N)N)C(N)=O` is reported as 64 µM (Candida albicans; broth microdilution; CGMCC 2.209, RPMI 1640-MOPS; 48 h, 30 °C, together with: CaCl2 2 mM).
The MIC of `CC[C@H](C)[C@H](NC(=O)CN)C(=O)NCC(=O)N[C@@H](C)C(=O)N[C@H](C(=O)N[C@@H](CC(C)C)C(=O)N[C@@H](CCCCN)C(=O)N[C@H](C(=O)N[C@@H](CC(C)C)C(=O)N[C@H](C(=O)N[C@H](C(=O)NCC(=O)N[C@@H](CC(C)C)C(=O)N1CCC[C@H]1C(=O)N[C@@H](C)C(=O)N[C@@H](CC(C)C)C(=O)N[C@H](C(=O)N[C@@H](CO)C(=O)N[C@@H](Cc1c[nH]c2ccccc12)C(=O)N[C@H](C(=O)N[C@@H](CCCCN)C(=O)N[C@@H](CCCNC(=N)N)C(=O)N[C@@H](CCCCN)C(=O)N[C@@H](CCCNC(=N)N)C(=O)N[C@@H](CCC(N)=O)C(=O)N[C@@H](CCC(N)=O)C(N)=O)[C@@H](C)CC)[C@@H](C)CC)[C@@H](C)O)[C@@H](C)O)C(C)C)C(C)C` is reported as 2 µM (Candida parapsilosis; broth microdilution; CGMCC 2.399, RPMI-1640; 48 h, 30 °C).
`CC(C)(CN)CNCc1nc2ccccc2n1CCOc1ccccc1` gave an MIC of 16 to 64 µg/mL (Gram-negative bacteria panel).
`CC[C@H](C)[C@H](NC(=O)[C@H](Cc1c[nH]c2ccccc12)NC(=O)[C@@H](NC(=O)[C@@H](NC(=O)[C@@H](NC(=O)[C@H](CCCNC(=N)N)NC(=O)[C@@H](N)CCCNC(=N)N)[C@@H](C)CC)[C@@H](C)O)[C@@H](C)CC)C(=O)N[C@H](C(=O)N[C@H](C(=O)N[C@@H](CCCNC(=N)N)C(=O)N[C@@H](CCCNC(=N)N)C(N)=O)[C@@H](C)CC)[C@@H](C)O` has an MIC of 2 µM (Candida parapsilosis; CGMCC 2.399; 48 h, 37 °C).
The MIC of `CC(C)C[C@H](NC(=O)CNC(=O)CNC(=O)CNC(=O)[C@H](Cc1ccc(O)cc1)NC(=O)[C@H](CC(C)C)NC(=O)[C@@H](NC(=O)CNC(=O)[C@H](Cc1ccc(O)cc1)NC(=O)[C@H](CCCCN)NC(=O)[C@H](CC(N)=O)NC(=O)[C@@H](NC(=O)[C@H](CCCCN)NC(=O)[C@H](Cc1c[nH]c2ccccc12)NC(=O)CN)[C@@H](C)O)[C@@H](C)O)C(=O)N[C@@H](CCCCN)C(=O)N[C@@H](CCCCN)C(=O)N[C@@H](CC(C)C)C(=O)N[C@@H](CC(C)C)C(=O)N[C@@H](CC(C)C)C(=O)N[C@@H](CC(C)C)C(=O)N[C@@H](CC(C)C)C(=O)N[C@@H](CCCCN)C(=O)N[C@@H](CCCCN)C(=O)N[C@@H](CC(C)C)C(=O)NCC(=O)O` is reported as 32 µg/mL (Staphylococcus aureus; USA300; together with: 4.5 mM KCl).
`CC(C)C[C@@H]1NC(=O)[C@H](Cc2ccccc2)NC(=O)[C@H](Cc2ccc(O)cc2)NC(=O)[C@H](CC(C)C)NC(=O)[C@H](CCC(=O)O)NC(=O)[C@H](Cc2ccccc2)NC(=O)[C@H](CCCNC(=N)N)NC(=O)[C@H](CCC(N)=O)NC(=O)[C@H](CC(C)C)NC(=O)[C@H](CC(=O)O)NC(=O)[C@@H]2CCCN2C(=O)[C@H](CCCCN)NC(=O)[C@H](C(C)C)NC(=O)[C@H](CC(N)=O)NC(=O)[C@H](Cc2ccc(O)cc2)NC(=O)[C@H]([C@@H](C)O)NC(=O)[C@@H](N)CSSC[C@@H](C(=O)O)NC(=O)[C@H]([C@@H](C)O)NC(=O)[C@H](C(C)C)NC(=O)[C@H]([C@@H](C)O)NC(=O)CNC1=O` has an MIC of greater than 40 µM (Pseudomonas fluorescens; broth dilution; CGMCC strain; 24 h).
The MIC of `CC[C@H](C)C[C@H](C)CCCCCCCCC(=O)N[C@H]1C[C@@H](O)[C@@H](NCCN)NC(=O)[C@@H]2[C@@H](O)CCN2C(=O)[C@H]([C@H](O)CCN)NC(=O)[C@H]([C@H](O)[C@@H](O)c2ccc(O)cc2)NC(=O)[C@@H]2C[C@@H](O)CN2C(=O)[C@H]([C@@H](C)O)NC1=O` is reported as 4 µg/mL (Candida parapsilosis; broth dilution; ATCC 22099; 48 h, 37 °C).
For `CC[C@H](C)CCCCC(=O)N[C@@H](CCN)C(=O)N[C@H](C(=O)N[C@@H](CCN)C(=O)N[C@H]1CCNC(=O)[C@H]([C@@H](C)O)NC(=O)[C@H](CCN)NC(=O)[C@H](CCN)NC(=O)[C@H](CC(C)C)NC(=O)[C@@H](CC(C)C)NC(=O)[C@H](CCN)NC1=O)[C@@H](C)O`, the MIC was greater than 64 µg/mL (Enterobacter cloacae; ATCC 13047).
`C[C@@H](O)[C@H]1C(=O)N2C(C(=O)O)=C(SCCN=CN)C[C@H]12` gave an MIC of 128 µg/mL (Klebsiella pneumoniae; KPC-2 parental strain K3(3201)).
`CC(C)[C@H](NC(=O)[C@H](CCCNC(=N)N)NC(=O)[C@H](Cc1c[nH]c2ccccc12)NC(=O)[C@H](CCCNC(=N)N)NC(=O)[C@H](Cc1c[nH]c2ccccc12)NC(=O)[C@H](Cc1c[nH]c2ccccc12)NC(=O)[C@H](Cc1c[nH]c2ccccc12)NC(=O)[C@H](CCCNC(=N)N)NC(=O)[C@H](Cc1c[nH]c2ccccc12)NC(=O)[C@H](CCCNC(=N)N)NC(=O)CN)C(N)=O` gave an MIC of 32 µM (Candida albicans; broth microdilution; CGMCC 2.209, RPMI 1640-MOPS; 48 h, 30 °C, together with: CaCl2 2 mM).
`C[C@@H](O)[C@H](NC(=O)[C@H](Cc1c[nH]c2ccccc12)NC(=O)[C@H](Cc1c[nH]c2ccccc12)NC(=O)[C@H](Cc1c[nH]c2ccccc12)NC(=O)[C@@H](NC(=O)[C@H](Cc1c[nH]c2ccccc12)NC(=O)[C@H](CCCNC(=N)N)NC(=O)[C@@H](N)CCCNC(=N)N)[C@@H](C)O)C(=O)N[C@@H](Cc1c[nH]c2ccccc12)C(=O)N[C@@H](CCCNC(=N)N)C(=O)N[C@@H](CCCNC(=N)N)C(N)=O` has an MIC of 16 µM (Candida parapsilosis; CGMCC 2.399; 48 h, 37 °C).
`CC(C)C[C@H](NC(=O)[C@H](CCCNC(=N)N)NC(=O)[C@H](Cc1c[nH]c2ccccc12)NC(=O)[C@H](CCCNC(=N)N)NC(=O)[C@H](Cc1c[nH]c2ccccc12)NC(=O)[C@H](Cc1c[nH]c2ccccc12)NC(=O)[C@H](Cc1c[nH]c2ccccc12)NC(=O)[C@H](CCCNC(=N)N)NC(=O)[C@H](Cc1c[nH]c2ccccc12)NC(=O)[C@@H](N)CCCNC(=N)N)C(N)=O` gave an MIC of 8 µM (Candida albicans; broth microdilution; 56452, RPMI 1640-MOPS; 48 h, 30 °C).
For `CC[C@H](C)[C@H](NC(=O)[C@H](C)NC(=O)[C@H](CCCCN)NC(=O)[C@H](CC(C)C)NC(=O)[C@H](C)NC(=O)[C@@H](NC(=O)[C@H](Cc1c[nH]cn1)NC(=O)[C@H](CC(C)C)NC(=O)[C@@H](NC(=O)[C@@H](NC(=O)[C@H](CCCCN)NC(=O)[C@H](C)NC(=O)[C@H](C)NC(=O)[C@H](CO)NC(=O)[C@H](CCCCN)NC(=O)[C@H](Cc1ccccc1)NC(=O)[C@@H](NC(=O)[C@H](CCCCN)NC(=O)[C@H](CC(C)C)NC(=O)[C@H](Cc1ccccc1)NC(=O)[C@H](CO)NC(=O)[C@H](CCCCN)NC(=O)[C@H](Cc1c[nH]c2ccccc12)NC(=O)[C@H](CCCCN)NC(C)=O)[C@@H](C)O)[C@@H](C)O)C(C)C)[C@@H](C)O)C(=O)N[C@@H](CO)C(=O)N[C@@H](CO)C(N)=O`, the MIC was 4 µg/mL (Enterobacter cloacae; range over strains).
`C[C@H](NC(=O)[C@H](CCCNC(=N)N)NC(=O)[C@H](Cc1c[nH]c2ccccc12)NC(=O)[C@H](CCCNC(=N)N)NC(=O)[C@H](Cc1c[nH]c2ccccc12)NC(=O)[C@H](Cc1c[nH]c2ccccc12)NC(=O)[C@H](Cc1c[nH]c2ccccc12)NC(=O)[C@H](CCCNC(=N)N)NC(=O)[C@H](Cc1c[nH]c2ccccc12)NC(=O)[C@H](CCCNC(=N)N)NC(=O)CN)C(N)=O` has an MIC of 16 µM (Candida parapsilosis; broth microdilution; CGMCC 2.399, RPMI 1640-MOPS; 48 h, 30 °C).
The MIC of `CC[C@H](C)[C@H](NC(=O)[C@H](CCCCN)NC(=O)[C@@H](NC(=O)[C@H](Cc1ccc(O)cc1)NC(=O)[C@H](CCCCN)NC(=O)[C@H](CCCCN)NC(=O)CNC(=O)[C@H](CCCCN)NC(=O)[C@@H](NC(=O)[C@H](C)NC(=O)[C@H](CC(C)C)NC(=O)[C@H](Cc1c[nH]c2ccccc12)NC(=O)CNC(=O)[C@@H](NC(=O)[C@H](Cc1ccccc1)NC(=O)[C@H](CCCCN)NC(=O)[C@H](CC(C)C)NC(=O)[C@H](Cc1ccccc1)NC(=O)[C@H](C)NC(=O)CNC(=O)[C@@H](N)CCSC)C(C)C)[C@@H](C)O)C(C)C)C(=O)N[C@@H](C)C(=O)N[C@@H](Cc1c[nH]c2ccccc12)C(=O)N[C@@H](CC(=O)O)C(=O)N[C@@H](Cc1c[nH]cn1)C(=O)N[C@@H](CCCCN)C(=O)NCC(=O)N[C@H](C(=O)N[C@H](C(=O)N[C@@H](CCSC)C(=O)N[C@@H](CCCCN)C(=O)N[C@@H](Cc1c[nH]c2ccccc12)C(=O)N[C@@H](CC(C)C)C(=O)N[C@@H](CC(N)=O)C(=O)N[C@@H](C)C(=O)NCC(=O)N[C@@H](CCC(N)=O)C(=O)N[C@H](C(=O)N[C@@H](Cc1ccccc1)C(=O)N[C@H](C(=O)N[C@@H](Cc1c[nH]c2ccccc12)C(=O)N[C@H](C(=O)N[C@@H](Cc1ccc(O)cc1)C(=O)N[C@@H](CCC(=O)O)C(=O)N[C@@H](CCC(N)=O)C(=O)N[C@H](C(=O)N[C@@H](CCCCN)C(=O)N[C@@H](CCCCN)C(=O)N[C@@H](CC(C)C)C(=O)N[C@@H](Cc1c[nH]c2ccccc12)C(=O)N[C@H](C(=O)O)[C@@H](C)O)[C@@H](C)CC)C(C)C)[C@@H](C)O)[C@@H](C)O)[C@@H](C)CC)[C@@H](C)O` is reported as 62.5 µg/mL (Streptococcus equi; 37 °C, non-formylated synthetic).
`CC[C@H](C)[C@H](NC(=O)CN)C(=O)NCC(=O)N[C@@H](C)C(=O)N[C@H](C(=O)N[C@@H](CC(C)C)C(=O)N[C@@H](CCCCN)C(=O)N[C@H](C(=O)N[C@@H](CC(C)C)C(=O)N[C@H](C(=O)N[C@H](C(=O)NCC(=O)N[C@@H](CC(C)C)C(=O)N1CCC[C@H]1C(=O)N[C@@H](C)C(=O)N[C@@H](CC(C)C)C(=O)N[C@H](C(=O)N[C@@H](CO)C(=O)N[C@@H](Cc1c[nH]c2ccccc12)C(=O)N[C@H](C(=O)N[C@@H](CCCCN)C(=O)N[C@@H](CCCNC(=N)N)C(=O)N[C@@H](CCCCN)C(=O)N[C@@H](CCCNC(=N)N)C(=O)N[C@@H](CCC(N)=O)C(=O)N[C@@H](CCC(N)=O)C(N)=O)[C@@H](C)CC)[C@@H](C)CC)[C@@H](C)O)[C@@H](C)O)C(C)C)C(C)C` gave an MIC of 2 µM (Candida parapsilosis; CGMCC 2.399; 48 h, 37 °C).
The MIC of `CC[C@H](C)[C@H](NC(=O)CN)C(=O)NCC(=O)N[C@@H](C)C(=O)N[C@H](C(=O)N[C@@H](CC(C)C)C(=O)N[C@@H](CCCCN)C(=O)N[C@H](C(=O)N[C@@H](CC(C)C)C(=O)N[C@H](C(=O)N[C@H](C(=O)NCC(=O)N[C@@H](CC(C)C)C(=O)N1CCC[C@H]1C(=O)N[C@@H](C)C(=O)N[C@@H](CC(C)C)C(=O)N[C@H](C(=O)N[C@@H](CO)C(=O)N[C@@H](Cc1c[nH]c2ccccc12)C(=O)N[C@H](C(=O)N[C@@H](CCCCN)C(=O)N[C@@H](CCCNC(=N)N)C(=O)N[C@@H](CCCCN)C(=O)N[C@@H](CCCNC(=N)N)C(=O)N[C@@H](CCC(N)=O)C(=O)N[C@@H](CCC(N)=O)C(N)=O)[C@@H](C)CC)[C@@H](C)CC)[C@@H](C)O)[C@@H](C)O)C(C)C)C(C)C` is reported as 4 µM (Candida parapsilosis; broth microdilution; CGMCC 2.399, RPMI 1640-MOPS; 48 h, 30 °C).

Repeated from above:
`CC(C)C[C@@H]1NC(=O)[C@H](Cc2ccccc2)NC(=O)[C@H](Cc2ccc(O)cc2)NC(=O)[C@H](CC(C)C)NC(=O)[C@H](CCC(=O)O)NC(=O)[C@H](Cc2ccccc2)NC(=O)[C@H](CCCNC(=N)N)NC(=O)[C@H](CCC(N)=O)NC(=O)[C@H](CC(C)C)NC(=O)[C@H](CC(=O)O)NC(=O)[C@@H]2CCCN2C(=O)[C@H](CCCCN)NC(=O)[C@H](C(C)C)NC(=O)[C@H](CC(N)=O)NC(=O)[C@H](Cc2ccc(O)cc2)NC(=O)[C@H]([C@@H](C)O)NC(=O)[C@@H](N)CSSC[C@@H](C(=O)O)NC(=O)[C@H]([C@@H](C)O)NC(=O)[C@H](C(C)C)NC(=O)[C@H]([C@@H](C)O)NC(=O)CNC1=O` has an MIC of greater than 40 µM (Pseudomonas fluorescens; broth dilution; CGMCC strain; 24 h).
